Assay results collected from several papers.
Each numbered part is a random draw from the data of one study; scales do not carry over between parts.

Block 1
Cell line: HEK-293T/ACE2
Tested at: 10 µM
Time: 16 h
Baseline: vehicle
| Compound | viability [%] |
| --- | --- |
| CC1COc2c(N3CCN(C)CC3)c(F)cc3c(=O)c(C(=O)O)cn1c23 (stereo not shown) | 99 |
| COc1ccc2nc(SCc3ncc(C)c(OC)c3C)[nH]c2c1 | 105 |
| CCCCCCCCCCCCCCCCCCCCCCO | 101 |
| CS(=O)(=O)OCCCCOS(C)(=O)=O | 99.1 |

Block 2
Target: Centromere-binding protein 1, full length, N-terminal tag (CBF1, Saccharomyces cerevisiae, UniProt P17106, residues 1-351)
Chain of UniProt P17106 (whole entry, looked up): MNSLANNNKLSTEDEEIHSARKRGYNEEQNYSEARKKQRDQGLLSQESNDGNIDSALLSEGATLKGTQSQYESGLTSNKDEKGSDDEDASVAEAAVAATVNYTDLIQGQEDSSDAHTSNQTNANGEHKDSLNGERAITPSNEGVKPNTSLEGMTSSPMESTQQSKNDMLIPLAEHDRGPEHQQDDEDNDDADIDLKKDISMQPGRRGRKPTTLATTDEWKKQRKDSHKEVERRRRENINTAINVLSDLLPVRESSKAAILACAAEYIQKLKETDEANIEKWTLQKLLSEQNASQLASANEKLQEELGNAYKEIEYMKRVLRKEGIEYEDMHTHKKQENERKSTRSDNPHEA
Technique: protein-binding microarray
Molecule type: double-stranded DNA, one strand shown
Matrix: in vitro
Tested at: 0.8 µM
Setting: whole 60-bp probe, no competitor
Reading: higher = stronger binding
| Sequence | fluorescence intensity |
| --- | --- |
| GAAAGGAGAAAGTACTACACGTGTTTTCAGACCTAGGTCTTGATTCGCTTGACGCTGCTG | 3850 a.u. |
| GAACAAATGCATCTGCAGGTGTGCTTCCATTATTAGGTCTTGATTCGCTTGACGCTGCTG | 553 a.u. |
| GAAAAAGCACTAGGCCAGGTGATTATACCGCAGTAGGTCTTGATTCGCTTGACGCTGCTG | 748 a.u. |
| CTAACACAAAATATACTCGTGCATTGAAGATGCTTCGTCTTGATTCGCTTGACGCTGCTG | 604 a.u. |
| CTAAATCTTTTTTGTCACATGTACACACTCATATTCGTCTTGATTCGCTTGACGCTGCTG | 3270 a.u. |
| CTAAACCGCCTTTGTCACACCATCCGGTAAGTATTCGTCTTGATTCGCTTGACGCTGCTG | 601 a.u. |
| CTAGTGACTAGTAGTCATGTTACTACTATATTATTCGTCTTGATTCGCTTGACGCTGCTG | 764 a.u. |
| CTAACCGTTGTCTCCCACGTTTCTTTTTTCTCGTTCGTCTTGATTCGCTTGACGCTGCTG | 617 a.u. |

Block 3
Target: Replicase polyprotein 1ab, main protease (rep, Severe acute respiratory syndrome coronavirus 2, UniProt P0DTD1)
Read-out: enzyme activity
Mode: inhibitor
Tested at: 20 µM
Setting: hit confirmation
| Structure (SMILES) | inhibition [%] |
| --- | --- |
| CCOC(=O)C1=C(N)Oc2ccc(Br)cc2C1C(C#N)C(=O)OCC (stereo not shown) | 20.2 |
| CC(C)(C)OC(=O)NCCc1nnc(S(=O)(=O)Cc2ccc(Cl)cc2Cl)o1 | 102 |
| CN(C)CCCCC(=O)Nc1ccc(NC(=S)NC(=O)c2ccc(C(C)(C)C)cc2)cc1 | 10.5 |

Other studies, line by line
| Molecule | target | read-out | mode | setting | endpoint | value |
| --- | --- | --- | --- | --- | --- | --- |
| (-)-epicatechin gallate | Replicase polyprotein 1ab, nsp13 helicase (rep, Severe acute respiratory syndrome coronavirus 2, UniProt P0DTD1) | helicase activity | inhibitor | with DTT | IC50 | 910 nM |

Excerpt of the above (block 2):
| Sequence | fluorescence intensity |
| --- | --- |
| GAAAAAGCACTAGGCCAGGTGATTATACCGCAGTAGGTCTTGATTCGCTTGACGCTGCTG | 748 a.u. |
